Results gathered from unrelated publications.
A part holds a random share of what one study measured. Positions count from the first letter of the parent shown.

Study 1
Target: CCNA2, cyclin fold, Cln2 fusion (human)
Technique: yeast growth competition, sequencing
Matrix: yeast
Notes: strong parent motif
Relative to: not given
Reading: higher = stronger binding
Starting sequence: ORC1 docking peptide (human); PRARKRLELGNLG
Substitution | normalised enrichment score
SRARKRLELGNLG [P1S] | 4.19
PRARKRLESGNLG [L9S] | 0.915
PRARARLELGNLG [K5A] | 1.37
PRARKRLELGNLS [G13S] | 5.4
PRARKRLELGLLG [N11L] | 4.65
PRARKWLELGNLG [R6W] | 0.96

Study 2
Target: RNA binding protein fox-1 homolog 2, RRM domain, GST-SBP tag (RBFOX2, Homo sapiens, UniProt O43251-10, residues 100-194)
Technique: RNA Bind-n-Seq
Form: RNA
Matrix: in vitro
Concentration: 365 nM
Notes: natural RNA segment, single round, ends assumed
Relative to: no-protein control
Reading: higher = stronger binding
Residues (chain): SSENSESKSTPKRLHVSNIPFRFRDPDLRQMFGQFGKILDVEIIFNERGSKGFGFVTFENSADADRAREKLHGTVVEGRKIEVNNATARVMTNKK
Strand | RBNS enrichment (R)
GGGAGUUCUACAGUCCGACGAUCUGGCCUUCUGGAAGUAUCAGCGGCCUGAAGGCCUCUGGCUACCUCGACUUUGGACAGAGUAAUGACUCCCCAGAAAACGUCAUAUAAGACUUUACCAGCCCCUGAGAGGAUGGAAUUCUCGGGUGCCAA | 0.423
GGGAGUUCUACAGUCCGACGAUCUUUCUUCCUUUCGCAGCCAGUCAGUCUUUCAAACUAUUGACAGUAAGAUAAUUCUCACGUUCACACCUGGUGGCAGGCUUCACUGUAGGGACGGACAUUGCAGUUACACCUGGAAUUCUCGGGUGCCAA | 0.316
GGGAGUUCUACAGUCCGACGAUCCCCAGGCUUUGUUUCCUUUGCUCGUGCCUUAUACUCACAUAUAUCCAAUAUAACCCAUGGUGUUAAGCGCAUCCCAUCCAAGGGAAGAAAGAACCCACUGCUCACAGCACUGGAAUUCUCGGGUGCCAA | 0.25
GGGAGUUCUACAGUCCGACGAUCUCGCUUAAGGAAUCUGCCCCACAGCUUCCCCCAUAGAAGGAUUUCAUGAGCAGAUCAGGACACUUAGCAAAUGUAAAAAUAAAAUCUAACUCUCAUUUGACAAGCAGAGAUGGAAUUCUCGGGUGCCAA | 0.332
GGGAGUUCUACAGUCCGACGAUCACCAAAAUUUUCCUUAUCCACAAUGUCCCUUCUGUCUCUUCCACUUUACAGUGGACUCGGCCACUGUGCAUAGGCUUCUCUGCUCUCCAUCAAAUCACUUCCACUUUCCUUGGAAUUCUCGGGUGCCAA | 0.943
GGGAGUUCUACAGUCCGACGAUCGUGGGCAUUUCCUCCUCCUGUGAGCCUUGCAGCCCUUGUAUGGCGGCUUUGGUCUGGGCAGUGCAUGUGUUAGUAGUGUACGUGGGCAGGUCGGGCUUUCUAAGCUUUGUUGGAAUUCUCGGGUGCCAA | 3.96
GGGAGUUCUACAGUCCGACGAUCUGAGAACAAAGGUCUAGGAUACUGCAUUAGUUACCAGAAAACUAGGGGAAUUUAGAGGGAAAAAAAAUCCAUGUUUUCUAUUUCCCAGGUUUUUAAAAAGUAGCUCUUCCUGGAAUUCUCGGGUGCCAA | 0.52

Study 3
Target: Prothrombin, mature alpha-thrombin (F2, Homo sapiens, UniProt P00734)
Technique: aptamer microarray, sandwich
Form: DNA with 2'F-ANA
Matrix: in vitro
Concentration: 200 nM
Notes: whole 15-mer aptamer, many near background
With: Cy3 exosite-II aptamer, 400 nM
Reading: higher = stronger binding
Strand: GGTTGGTGTGGTTGG
Modification | mean fluorescence intensity [a.u.]
2'F-ANA at 4 6 7 8 9 10 13 | 63.9
2'F-ANA at 3 5 6 8 13 14 | 54.7
2'F-ANA at 1 4 5 6 9 11 12 14 | 56.5
2'F-ANA at 1 2 3 4 7 8 9 11 12 14 | 75.9
2'F-ANA at 2 3 6 8 12 13 | 838
2'F-ANA at 2 3 4 5 6 7 12 13 15 | 111
2'F-ANA at 2 3 6 7 8 9 10 13 14 15 | 231

Further values, each from its own experiment
Molecule | target | test | system | setting | scale | endpoint | result
PhoQ, residues 284 288 289 292 302 303 SASVAL | PhoP, residues 12 14 15 18 19 SPWRL (Escherichia coli, UniProt P23836) | Sort-seq, item: YFP reporter | E. coli | PhoQ-PhoP variant library, with: 10 µM Mg2+ | relative to: high Mg2+ state, higher = stronger signaling | fold induction | 1.59

For quick reference, copied from above (study 2):
Strand | RBNS enrichment (R)
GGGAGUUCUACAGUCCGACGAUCUUUCUUCCUUUCGCAGCCAGUCAGUCUUUCAAACUAUUGACAGUAAGAUAAUUCUCACGUUCACACCUGGUGGCAGGCUUCACUGUAGGGACGGACAUUGCAGUUACACCUGGAAUUCUCGGGUGCCAA | 0.316
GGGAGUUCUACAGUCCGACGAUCCCCAGGCUUUGUUUCCUUUGCUCGUGCCUUAUACUCACAUAUAUCCAAUAUAACCCAUGGUGUUAAGCGCAUCCCAUCCAAGGGAAGAAAGAACCCACUGCUCACAGCACUGGAAUUCUCGGGUGCCAA | 0.25
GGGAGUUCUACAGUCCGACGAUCUCGCUUAAGGAAUCUGCCCCACAGCUUCCCCCAUAGAAGGAUUUCAUGAGCAGAUCAGGACACUUAGCAAAUGUAAAAAUAAAAUCUAACUCUCAUUUGACAAGCAGAGAUGGAAUUCUCGGGUGCCAA | 0.332
